Measurements pooled from the literature.
A part holds a random share of what one study measured. Values joined by “and” are separate records of one study, mostly repeats; a detail may differ. Changes are numbered by the printed parent chain.

Series 1
Target: 5-hydroxytryptamine receptor 2A (HTR2A, Homo sapiens, UniProt P28223)
Sequence of UniProt P28223 (whole entry, looked up): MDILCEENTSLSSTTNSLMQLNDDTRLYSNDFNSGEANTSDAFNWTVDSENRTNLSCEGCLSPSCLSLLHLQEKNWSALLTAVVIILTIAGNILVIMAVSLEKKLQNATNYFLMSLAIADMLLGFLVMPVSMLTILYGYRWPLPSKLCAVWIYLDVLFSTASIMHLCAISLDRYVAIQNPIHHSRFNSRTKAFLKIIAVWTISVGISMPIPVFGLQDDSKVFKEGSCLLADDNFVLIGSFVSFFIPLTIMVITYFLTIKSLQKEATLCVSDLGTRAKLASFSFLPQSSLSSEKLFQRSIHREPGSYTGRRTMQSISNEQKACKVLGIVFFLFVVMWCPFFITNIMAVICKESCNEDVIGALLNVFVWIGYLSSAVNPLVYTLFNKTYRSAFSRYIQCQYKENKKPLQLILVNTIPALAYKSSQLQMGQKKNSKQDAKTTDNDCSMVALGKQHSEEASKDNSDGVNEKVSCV
Read-out: ligand displacement
Tested at: 10 µM
SMILES	inhibition [%]
CNC(=O)Nc1ccc2c(c1)CC[C@]21OC(=O)N(CC(=O)N(Cc2ccc(F)cc2)[C@@H](C)C(F)(F)F)C1=O	34.6
CCC(=NO)C(C)=Cc1ccc(F)c(C)c1	40.8
COCc1nc2cnc3cc(-c4c(C)noc4C)c(OC[C@H]4CCNC4)cc3c2n1[C@H](C)c1ccccc1	-5.06
C[C@@H](c1cccc(C#N)c1)n1cc(Cl)cc(C(N)=O)c1=N	5.24
Cc1cc2c(-c3ccco3)cnc(N[C@H]3CCN(C)C[C@@H]3C(=O)NC3CCCCC3)c2[nH]c1=O	2.71
Nc1cnc(N2CCc3cc(S(=O)(=O)Nc4c(F)cc(Cl)cc4F)cc(N4CCCC4=O)c32)nc1	-2.82
Cc1noc([C@H]2C[C@@H](c3ccc(C(F)(F)F)cc3)CN(C(=O)N3CCS(=O)(=O)C3)C2)n1	-2.96
O=C(NNS(=O)(=O)c1ccccc1F)c1cc(F)cc(-c2ccccn2)c1	-7.37
CC(=O)N1CCC(c2ccc(C(=O)NC3=NCCN3)cc2C(F)(F)F)CC1	-11
CNC(=O)c1ccc(Nc2ncc(C(F)(F)F)c(NCc3nccnc3N(C)S(C)(=O)=O)n2)cc1	0.93
Nc1nc(NCc2ccccc2)nc(-c2ccccc2CO)n1	2.78
CC1=C(C#N)C(c2ccc3c(c2)c(NC(=O)c2ccccc2C)nn3C)C(C#N)=C(C)N1	8.41
N#CC1(c2ccccn2)CCN(Cc2cc(C(=O)N3CCCC3)c(=O)n3ccccc23)CC1	-15.7

Series 2
Target: CCNB3, cyclin fold, Cln2 fusion (human)
Method: yeast growth competition, sequencing
Matrix: yeast
Notes: strong parent motif
Relative to: not given
Reading: higher = stronger binding
Starting sequence: viral docking peptide; KGVKRKLFAEDSS; partner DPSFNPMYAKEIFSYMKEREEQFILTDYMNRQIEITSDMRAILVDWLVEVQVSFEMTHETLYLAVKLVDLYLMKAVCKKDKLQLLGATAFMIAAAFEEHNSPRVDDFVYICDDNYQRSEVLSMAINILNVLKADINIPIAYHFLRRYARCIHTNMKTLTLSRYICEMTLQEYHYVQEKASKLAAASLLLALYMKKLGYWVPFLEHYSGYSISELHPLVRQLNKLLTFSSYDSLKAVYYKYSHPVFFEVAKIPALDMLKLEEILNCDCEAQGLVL
Variant	normalised enrichment score
KGVKRKQFAEDSS [L7Q]	0.217
KGVKRKLFAEKSS [D11K]	1.79
KIVKRKLFAEDSS [G2I]	1.91
KGVKRKLDAEDSS [F8D]	-0.531
KGVKRKLFAADSS [E10A]	1.92
KGVKRKLFANDSS [E10N]	2.53
KGVKRKLFAEDNS [S12N]	3.24
KGVKRKLFAEMSS [D11M]	1.42

Series 3
Target: Beta-1 adrenergic receptor (ADRB1, Homo sapiens, UniProt P08588)
Sequence of UniProt P08588 (whole entry, looked up): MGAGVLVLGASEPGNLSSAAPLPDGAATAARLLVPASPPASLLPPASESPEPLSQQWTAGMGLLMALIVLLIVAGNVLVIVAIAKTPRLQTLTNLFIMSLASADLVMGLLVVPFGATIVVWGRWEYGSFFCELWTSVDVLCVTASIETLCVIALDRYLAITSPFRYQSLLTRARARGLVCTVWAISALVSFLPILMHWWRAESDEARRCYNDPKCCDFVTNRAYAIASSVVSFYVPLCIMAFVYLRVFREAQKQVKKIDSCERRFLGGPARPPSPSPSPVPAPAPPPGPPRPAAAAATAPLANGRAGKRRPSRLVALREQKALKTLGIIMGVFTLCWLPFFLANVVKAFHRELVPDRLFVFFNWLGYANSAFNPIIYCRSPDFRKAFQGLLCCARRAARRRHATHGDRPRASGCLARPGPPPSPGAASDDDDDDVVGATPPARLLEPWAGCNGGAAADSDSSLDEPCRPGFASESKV
Mode: agonist
Structure (SMILES)	Emax
CN(C)CCc1ccc(O)cc1	61.5%
CN[C@@H](C)[C@H](O)c1ccccc1	87.2%
CC(C)(C)NC[C@H](O)c1ccc(O)cc1Cl	87%

Series 4
Cell line: mouse MPNST tumor cells
Method: high-content immunofluorescence imaging
Measured: nuclear SOX9
Tested at: 10 µM
Time: 12 h
Notes: mean of 2 replicates
Relative to: DMSO control
Reading: higher = more nuclear SOX9
SMILES	nuclear SOX9 intensity
C[N+](C)(C)CCCCCCCCCC[N+](C)(C)C	86.1 % of DMSO
CC(C)(O)C(=O)Nc1ccc([N+](=O)[O-])c(C(F)(F)F)c1	105 % of DMSO
CCCN(CCC)C1CCc2ccc(O)cc2C1 (stereo not drawn)	107 % of DMSO

Other studies, line by line
HLA class I histocompatibility antigen, B alpha chain allele B*46:01: HLA class I histocompatibility antigen, B alpha chain, allele B*46:01 (Homo sapiens, UniProt P01889)
Molecule	tested on	test	test system	setting	endpoint	result
LVQPGRSL	HLA class I histocompatibility antigen, B alpha chain allele B*46:01	peptide-MHC binding	peptide	concentration not given	binding	inactive
CC(C)S(=O)(=O)c1cc2c(Nc3ccc4sc(C5CCCC5)nc4c3)ccnc2cc1OCCO	HT-29	necroptosis, CCK-8		0.041 µM, added: TNF-α, Smac mimetic, z-VAD	cell survival	33% and 31.7% and 30.4%
YTNVVPLVY	HLA class I histocompatibility antigen, B alpha chain allele B*46:01	peptide-MHC binding	peptide	concentration not given	binding	active
